Measurements of several laboratories.
Parts stem from different laboratories: compare values within a part only.
UniProt Q9BYP7, sequence (whole entry, looked up): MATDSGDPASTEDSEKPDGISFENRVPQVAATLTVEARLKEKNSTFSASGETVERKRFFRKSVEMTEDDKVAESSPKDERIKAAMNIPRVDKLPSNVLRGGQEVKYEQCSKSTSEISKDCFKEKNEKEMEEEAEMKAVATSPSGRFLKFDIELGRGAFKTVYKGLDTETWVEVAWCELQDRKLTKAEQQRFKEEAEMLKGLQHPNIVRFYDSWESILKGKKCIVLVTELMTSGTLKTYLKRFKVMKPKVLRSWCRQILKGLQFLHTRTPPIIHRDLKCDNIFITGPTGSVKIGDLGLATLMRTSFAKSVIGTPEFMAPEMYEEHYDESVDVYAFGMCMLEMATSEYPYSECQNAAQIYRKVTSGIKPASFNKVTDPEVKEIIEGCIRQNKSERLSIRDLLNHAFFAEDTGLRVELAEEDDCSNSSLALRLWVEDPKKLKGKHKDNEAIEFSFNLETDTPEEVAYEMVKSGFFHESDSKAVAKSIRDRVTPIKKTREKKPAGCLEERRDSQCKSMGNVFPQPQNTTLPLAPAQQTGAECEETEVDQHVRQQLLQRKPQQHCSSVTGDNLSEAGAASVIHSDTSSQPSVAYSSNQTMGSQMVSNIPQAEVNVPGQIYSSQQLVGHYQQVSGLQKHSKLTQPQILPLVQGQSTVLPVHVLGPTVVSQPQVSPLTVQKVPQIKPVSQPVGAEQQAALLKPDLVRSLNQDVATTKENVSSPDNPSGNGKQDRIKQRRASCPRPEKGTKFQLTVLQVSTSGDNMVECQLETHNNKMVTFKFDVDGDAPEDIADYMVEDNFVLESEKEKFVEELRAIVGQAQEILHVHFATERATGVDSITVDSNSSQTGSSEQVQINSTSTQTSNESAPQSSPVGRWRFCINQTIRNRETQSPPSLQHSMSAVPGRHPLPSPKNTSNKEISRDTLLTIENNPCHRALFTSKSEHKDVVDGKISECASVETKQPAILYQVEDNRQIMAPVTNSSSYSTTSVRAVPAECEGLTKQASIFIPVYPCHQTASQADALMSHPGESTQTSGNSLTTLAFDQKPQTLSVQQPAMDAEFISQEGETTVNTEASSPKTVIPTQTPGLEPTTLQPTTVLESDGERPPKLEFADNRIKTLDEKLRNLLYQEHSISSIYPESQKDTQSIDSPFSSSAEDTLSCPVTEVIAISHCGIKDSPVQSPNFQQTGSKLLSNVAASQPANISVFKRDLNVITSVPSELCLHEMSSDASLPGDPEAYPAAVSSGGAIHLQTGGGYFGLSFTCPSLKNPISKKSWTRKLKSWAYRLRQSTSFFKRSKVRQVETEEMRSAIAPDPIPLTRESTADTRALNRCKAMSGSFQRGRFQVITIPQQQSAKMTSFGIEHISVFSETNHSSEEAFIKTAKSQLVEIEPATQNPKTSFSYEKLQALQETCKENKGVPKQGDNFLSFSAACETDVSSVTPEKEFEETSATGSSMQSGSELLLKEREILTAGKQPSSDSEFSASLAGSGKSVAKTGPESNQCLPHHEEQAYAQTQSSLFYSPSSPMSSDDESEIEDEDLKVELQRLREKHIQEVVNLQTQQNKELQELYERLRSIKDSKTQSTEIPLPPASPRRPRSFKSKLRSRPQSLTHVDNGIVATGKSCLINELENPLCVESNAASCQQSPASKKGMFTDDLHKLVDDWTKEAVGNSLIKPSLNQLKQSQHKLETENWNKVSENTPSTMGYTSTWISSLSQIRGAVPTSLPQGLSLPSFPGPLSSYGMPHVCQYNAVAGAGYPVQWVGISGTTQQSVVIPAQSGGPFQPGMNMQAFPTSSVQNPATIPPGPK
UniProt Q9UQB9, sequence (whole entry, looked up): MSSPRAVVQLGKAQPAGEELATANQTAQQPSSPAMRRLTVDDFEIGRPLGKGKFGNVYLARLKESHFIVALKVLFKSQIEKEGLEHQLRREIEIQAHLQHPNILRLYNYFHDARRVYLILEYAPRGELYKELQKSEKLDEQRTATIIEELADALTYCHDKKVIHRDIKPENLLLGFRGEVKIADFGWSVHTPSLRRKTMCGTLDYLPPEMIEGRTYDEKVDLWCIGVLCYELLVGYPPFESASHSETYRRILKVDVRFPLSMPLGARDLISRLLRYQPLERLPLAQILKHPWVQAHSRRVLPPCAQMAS
UniProt Q56UN5, sequence (whole entry, looked up): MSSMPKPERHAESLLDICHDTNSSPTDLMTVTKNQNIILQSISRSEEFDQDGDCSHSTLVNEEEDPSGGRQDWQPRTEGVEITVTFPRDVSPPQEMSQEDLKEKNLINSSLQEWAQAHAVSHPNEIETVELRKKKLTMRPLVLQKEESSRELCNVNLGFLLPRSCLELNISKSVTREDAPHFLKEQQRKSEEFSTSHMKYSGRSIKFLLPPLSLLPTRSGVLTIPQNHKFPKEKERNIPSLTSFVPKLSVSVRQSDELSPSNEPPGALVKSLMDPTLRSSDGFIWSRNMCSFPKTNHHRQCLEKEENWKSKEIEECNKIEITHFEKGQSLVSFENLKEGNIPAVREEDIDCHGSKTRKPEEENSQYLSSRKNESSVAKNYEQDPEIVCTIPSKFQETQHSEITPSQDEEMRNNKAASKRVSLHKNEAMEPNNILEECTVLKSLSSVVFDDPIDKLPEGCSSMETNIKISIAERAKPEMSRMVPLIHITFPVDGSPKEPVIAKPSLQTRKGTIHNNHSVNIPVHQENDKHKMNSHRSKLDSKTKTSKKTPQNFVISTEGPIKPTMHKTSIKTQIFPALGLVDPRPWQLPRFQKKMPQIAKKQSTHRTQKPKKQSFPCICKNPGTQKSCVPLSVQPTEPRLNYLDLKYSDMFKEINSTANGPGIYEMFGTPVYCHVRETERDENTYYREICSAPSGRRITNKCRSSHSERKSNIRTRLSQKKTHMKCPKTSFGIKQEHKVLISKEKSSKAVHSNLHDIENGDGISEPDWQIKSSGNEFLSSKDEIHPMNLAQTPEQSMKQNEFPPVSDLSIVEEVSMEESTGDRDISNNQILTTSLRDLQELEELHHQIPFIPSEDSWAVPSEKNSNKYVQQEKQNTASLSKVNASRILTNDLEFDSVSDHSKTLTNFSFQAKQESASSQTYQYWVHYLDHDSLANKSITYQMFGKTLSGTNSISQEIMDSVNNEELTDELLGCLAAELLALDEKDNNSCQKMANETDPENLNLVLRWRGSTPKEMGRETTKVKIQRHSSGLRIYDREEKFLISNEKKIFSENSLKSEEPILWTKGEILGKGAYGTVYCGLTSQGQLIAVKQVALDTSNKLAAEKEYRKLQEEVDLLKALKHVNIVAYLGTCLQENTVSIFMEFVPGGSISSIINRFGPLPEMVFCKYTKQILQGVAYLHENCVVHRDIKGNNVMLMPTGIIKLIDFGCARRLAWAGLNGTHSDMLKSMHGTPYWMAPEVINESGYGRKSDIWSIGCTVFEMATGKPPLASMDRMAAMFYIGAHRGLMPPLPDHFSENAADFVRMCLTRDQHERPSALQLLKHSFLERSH
UniProt P35590, sequence (whole entry, looked up): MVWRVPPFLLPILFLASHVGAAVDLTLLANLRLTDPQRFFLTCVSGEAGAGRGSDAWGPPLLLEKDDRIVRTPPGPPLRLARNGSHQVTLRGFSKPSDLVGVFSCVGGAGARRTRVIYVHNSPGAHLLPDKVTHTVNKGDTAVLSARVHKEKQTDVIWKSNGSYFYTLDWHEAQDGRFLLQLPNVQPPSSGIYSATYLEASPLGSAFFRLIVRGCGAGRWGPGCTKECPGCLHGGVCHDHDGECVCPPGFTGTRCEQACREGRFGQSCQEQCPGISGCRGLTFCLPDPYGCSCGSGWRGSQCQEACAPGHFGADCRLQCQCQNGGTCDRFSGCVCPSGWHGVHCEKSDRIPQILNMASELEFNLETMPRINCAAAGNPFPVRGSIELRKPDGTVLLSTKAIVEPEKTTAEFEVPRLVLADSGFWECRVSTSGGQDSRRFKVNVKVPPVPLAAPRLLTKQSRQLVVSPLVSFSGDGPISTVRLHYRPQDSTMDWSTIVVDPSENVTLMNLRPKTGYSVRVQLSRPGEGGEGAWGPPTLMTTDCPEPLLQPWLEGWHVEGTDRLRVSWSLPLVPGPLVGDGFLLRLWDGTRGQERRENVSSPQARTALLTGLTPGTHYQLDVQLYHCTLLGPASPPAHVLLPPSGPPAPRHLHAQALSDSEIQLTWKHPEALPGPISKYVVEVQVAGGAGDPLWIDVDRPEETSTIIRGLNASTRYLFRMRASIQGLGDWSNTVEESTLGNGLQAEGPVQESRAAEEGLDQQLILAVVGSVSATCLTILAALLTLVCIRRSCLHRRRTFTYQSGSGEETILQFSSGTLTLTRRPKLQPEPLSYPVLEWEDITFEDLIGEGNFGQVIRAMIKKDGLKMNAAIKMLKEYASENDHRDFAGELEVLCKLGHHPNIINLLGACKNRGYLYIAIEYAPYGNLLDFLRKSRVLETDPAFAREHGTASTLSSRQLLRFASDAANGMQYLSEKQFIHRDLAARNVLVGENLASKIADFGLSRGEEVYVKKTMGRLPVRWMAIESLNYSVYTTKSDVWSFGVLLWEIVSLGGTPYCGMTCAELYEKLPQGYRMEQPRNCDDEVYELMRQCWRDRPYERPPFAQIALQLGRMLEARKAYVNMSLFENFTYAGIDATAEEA

Series 1
Target: Dual specificity mitogen-activated protein kinase kinase 6 (MAP2K6, Homo sapiens, UniProt P52564)
UniProt P52564, sequence (whole entry, looked up): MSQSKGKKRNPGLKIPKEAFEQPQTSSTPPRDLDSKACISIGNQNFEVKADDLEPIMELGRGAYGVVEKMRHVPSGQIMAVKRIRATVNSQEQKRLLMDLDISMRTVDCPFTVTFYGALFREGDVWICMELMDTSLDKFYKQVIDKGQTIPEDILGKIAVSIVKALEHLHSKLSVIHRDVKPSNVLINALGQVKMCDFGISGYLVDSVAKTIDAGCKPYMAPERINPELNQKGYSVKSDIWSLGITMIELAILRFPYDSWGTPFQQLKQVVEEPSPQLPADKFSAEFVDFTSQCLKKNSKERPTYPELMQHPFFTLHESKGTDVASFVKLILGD
Read-out: enzyme activity
Action: inhibitor
Tested at: 0.5 µM
Relative to: control
Quantity: remaining activity
c1ccc(-c2[nH]ncc2-c2ccnc3ccccc23)nc1: 138%
Cn1nc2c3c(cccc31)C(=O)c1ccccc1-2: 96.4%
N#C/C(=C\c1ccc(O)c(O)c1)C(=O)NCc1ccccc1: 127%
CN(C)C[C@H]1CCn2c(c(C3=C(c4cn(C)c5ccccc45)C(=O)NC3=O)c3ccccc32)C1: 109%
C[C@@H]1CCN(C(=O)CC#N)C[C@@H]1N(C)c1ncnc2[nH]ccc12: 99.4%
COc1cc2ncnc(Nc3ccc(O)c(Br)c3)c2cc1OC: 84.9%
O=c1cc(-c2cccc3c2Sc2ccccc2S3)oc(N2CCOCC2)c1: 107%
N#Cc1c(NC(=O)c2cccc3ccccc23)sc2c1CCCC2: 98.1%
O=C1c2ccccc2-c2n[nH]c3cccc1c23: 87.1%
O=C1C(Cl)=C(N2C(=O)CCC2=O)C(=O)c2ccccc21: 107%
Ic1cccc(CSc2nnc(-c3ccncc3)o2)c1: 97%
CN([C@@H](Cc1ccc(OS(=O)(=O)c2cccc3cnccc23)cc1)C(=O)N1CCN(c2ccccc2)CC1)S(=O)(=O)c1cccc2cnccc12: 104%
Cc1nc2cc3nc(-c4cccs4)cnc3cc2n1C: 104%
Nc1cccc(-c2cc3c(Oc4cccc(O)c4)ncnc3[nH]2)c1: 90.1%
Cc1cc2ncc(-c3ccccc3)nc2cc1C: 91.1%
CCN(CC)C(=O)c1ccc(Nc2nc(OCC3CCCCC3)c3[nH]cnc3n2)cc1: 93.1%
c1ccc(-c2cnc(Nc3ccc(OCCN4CCCC4)cc3)s2)cc1: 93.6%
O=C(Nc1cccc(Nc2nccc(Nc3cccc(C(F)(F)F)c3)n2)c1)C1CC1: 98.3%
Cc1cn(-c2cc(NC(=O)c3ccc(C)c(Nc4nccc(-c5cccnc5)n4)c3)cc(C(F)(F)F)c2)cn1: 96.3%
COc1cc2c(cc1OC)-c1[nH]nc(Nc3cccc(F)c3)c1C2: 87%
CCOc1nc(NC(=O)Cc2cc(OC)ccc2OC)cc(N)c1C#N: 96.8%
O=C(NC(NC(=S)Nc1ccc(F)c([N+](=O)[O-])c1)C(Cl)(Cl)Cl)C(c1ccccc1)c1ccccc1 (centres unmarked): 107%
CCN(CC)CCNC(=O)c1c(C)[nH]c(/C=C2\C(=O)Nc3ccc(Cl)cc32)c1C: 86.2%
COc1cc2ncnc(Nc3cccc(Cl)c3)c2cc1OC: 88.7%

Series 2
Structure (SMILES): CN1CCN(C(=O)c2ccc(NC(=O)Nc3ccc(N(C)c4ccnc(Nc5ccc(CS(C)(=O)=O)cc5)n4)cc3)cc2)CC1
Tested at: 1 µM
Quantity: remaining binding
Serine/threonine-protein kinase Nek6 (NEK6, Homo sapiens, UniProt Q9HC98); competitive binding panel; relative to: vehicle: 100%
Insulin-like growth factor 1 receptor (IGF1R, Homo sapiens, UniProt P08069); competitive binding panel; relative to: vehicle: 100%
Phosphatidylinositol 3-kinase C2 domain-containing subunit gamma (PIK3C2G, Homo sapiens, UniProt O75747); competitive binding panel; relative to: vehicle: 100%
Serine/threonine-protein kinase/endoribonuclease IRE1 (ERN1, Homo sapiens, UniProt O75460); competitive binding panel; relative to: vehicle: 25%
Serine/threonine-protein kinase tousled-like 2 (TLK2, Homo sapiens, UniProt Q86UE8); competitive binding panel; relative to: vehicle: 100%
Non-receptor tyrosine-protein kinase TNK1 (TNK1, Homo sapiens, UniProt Q13470); competitive binding panel; relative to: vehicle: 6.7%
Serine/threonine-protein kinase OSR1 (OXSR1, Homo sapiens, UniProt O95747); competitive binding panel, refers to: OSR1; relative to: vehicle: 98%
Receptor-type tyrosine-protein kinase FLT3 (FLT3, Homo sapiens, UniProt P36888); competitive binding scan; autoinhibited form: 7.3%

Series 3
Compound: COc1cc(-c2cn(C3CCc4c(F)cccc4N(CC(F)(F)F)C3=O)nn2)ccc1-n1cnc(C)c1 (centres unmarked)
Tested at: 1 µM
Quantity: remaining binding
Serine/threonine-protein kinase 10 (STK10, Homo sapiens, UniProt O94804); cell-free assay, competition with immobilised ligand: 100%
Epidermal growth factor receptor (EGFR, Homo sapiens, UniProt P00533, T790M); cell-free assay, competition with immobilised ligand: 83%
Serine/threonine-protein kinase STK11 (STK11, Homo sapiens, UniProt Q15831); cell-free assay, competition with immobilised ligand: 100%
Mitogen-activated protein kinase kinase kinase 15 (MAP3K15, Homo sapiens, UniProt Q6ZN16); cell-free assay, competition with immobilised ligand: 100%
Casein kinase I isoform alpha-like (CSNK1A1L, Homo sapiens, UniProt Q8N752); cell-free assay, competition with immobilised ligand: 100%
Mitogen-activated protein kinase kinase kinase 19 (MAP3K19, Homo sapiens, UniProt Q56UN5); cell-free assay, competition with immobilised ligand: 100%
Serine/threonine-protein kinase 16 (STK16, Homo sapiens, UniProt O75716); cell-free assay, competition with immobilised ligand: 100%
Ephrin type-A receptor 7 (EPHA7, Homo sapiens, UniProt Q15375); cell-free assay, competition with immobilised ligand: 100%
Glycogen synthase kinase-3 beta (GSK3B, Homo sapiens, UniProt P49841); cell-free assay, competition with immobilised ligand: 100%
Receptor-type tyrosine-protein kinase FLT3, autoinhibited (FLT3, Homo sapiens, UniProt P36888); cell-free assay, competition with immobilised ligand: 100%
Wee1-like protein kinase (WEE1, Homo sapiens, UniProt P30291); cell-free assay, competition with immobilised ligand: 79%
Cyclin-dependent kinase 17 (CDK17, Homo sapiens, UniProt Q00537); cell-free assay, competition with immobilised ligand: 84%
Dual specificity mitogen-activated protein kinase kinase 4 (MAP2K4, Homo sapiens, UniProt P45985); cell-free assay, competition with immobilised ligand: 93%
Inhibitor of nuclear factor kappa-B kinase subunit alpha (CHUK, Homo sapiens, UniProt O15111); cell-free assay, competition with immobilised ligand: 100%
Aurora kinase C (AURKC, Homo sapiens, UniProt Q9UQB9); cell-free assay, competition with immobilised ligand: 100%
Serine/threonine-protein kinase WNK3 (WNK3, Homo sapiens, UniProt Q9BYP7); cell-free assay, competition with immobilised ligand: 100%
Dual specificity mitogen-activated protein kinase kinase 1 (MAP2K1, Homo sapiens, UniProt Q02750); cell-free assay, competition with immobilised ligand: 100%
Fibroblast growth factor receptor 1 (FGFR1, Homo sapiens, UniProt P11362); cell-free assay, competition with immobilised ligand: 100%
AP2-associated protein kinase 1 (AAK1, Homo sapiens, UniProt Q2M2I8); binding: 100%
SRSF protein kinase 1 (SRPK1, Homo sapiens, UniProt Q96SB4); cell-free assay, competition with immobilised ligand: 100%
Bone morphogenetic protein receptor type-1B (BMPR1B, Homo sapiens, UniProt O00238); cell-free assay, competition with immobilised ligand: 100%
MAP kinase-interacting serine/threonine-protein kinase 2 (MKNK2, Homo sapiens, UniProt Q9HBH9); cell-free assay, competition with immobilised ligand: 76%
Receptor-type tyrosine-protein kinase FLT3 (FLT3, Homo sapiens, UniProt P36888, D835H); cell-free assay, competition with immobilised ligand: 98%
Serine/threonine-protein kinase MRCK beta (CDC42BPB, Homo sapiens, UniProt Q9Y5S2); cell-free assay, competition with immobilised ligand: 100%
Ribosomal protein S6 kinase alpha-2, N-terminal kinase domain (RPS6KA2, Homo sapiens, UniProt Q15349); cell-free assay, competition with immobilised ligand: 100%

Series 4
Structure (SMILES): C=CC(=O)N1CCC[C@@H](n2nc(-c3ccc(Oc4ccccc4)cc3)c3c(N)ncnc32)C1
Tested at: 1 µM
Quantity: inhibition
Mitogen-activated protein kinase kinase kinase 13 (MAP3K13, Homo sapiens, UniProt O43283); enzyme activity, inhibitor: 22%
Mitogen-activated protein kinase kinase kinase kinase 2 (MAP4K2, Homo sapiens, UniProt Q12851); enzyme activity, inhibitor: 38%
Mitogen-activated protein kinase kinase kinase 19 (MAP3K19, Homo sapiens, UniProt Q56UN5); enzyme activity, inhibitor: 24%
Interleukin-1 receptor-associated kinase 1 (IRAK1, Homo sapiens, UniProt P51617); enzyme activity, inhibitor: 24%
Serine/threonine-protein kinase mTOR (MTOR, Homo sapiens, UniProt P42345): 20%
Tyrosine-protein kinase ABL1, phosphorylated (ABL1, Homo sapiens, UniProt P00519, H396P); inhibitor: 45%
Non-receptor tyrosine-protein kinase TYK2, JH2 pseudokinase domain (TYK2, Homo sapiens, UniProt P29597); inhibitor: 7%
Dual specificity protein kinase TTK (TTK, Homo sapiens, UniProt P33981); inhibitor: 27%
Transient receptor potential cation channel subfamily M member 6 (TRPM6, Homo sapiens, UniProt Q9BX84); inhibitor: 15%
Tyrosine-protein kinase receptor Tie-1 (TIE1, Homo sapiens, UniProt P35590); enzyme activity, inhibitor: 34%
Activin receptor type-2A (ACVR2A, Homo sapiens, UniProt P27037); enzyme activity, inhibitor: 0%
Aurora kinase C (AURKC, Homo sapiens, UniProt Q9UQB9); enzyme activity, inhibitor: 17%
Serine/threonine-protein kinase WNK3 (WNK3, Homo sapiens, UniProt Q9BYP7); enzyme activity, inhibitor: 75%
Epidermal growth factor receptor (EGFR, Homo sapiens, UniProt P00533, del746-750); inhibitor: 98%

For quick reference, copied from above (series 1):
O=c1cc(-c2cccc3c2Sc2ccccc2S3)oc(N2CCOCC2)c1: 107%
Cc1cc2ncc(-c3ccccc3)nc2cc1C: 91.1%
Cc1nc2cc3nc(-c4cccs4)cnc3cc2n1C: 104%
N#C/C(=C\c1ccc(O)c(O)c1)C(=O)NCc1ccccc1: 127%
Cn1nc2c3c(cccc31)C(=O)c1ccccc1-2: 96.4%
Nc1cccc(-c2cc3c(Oc4cccc(O)c4)ncnc3[nH]2)c1: 90.1%
O=C1C(Cl)=C(N2C(=O)CCC2=O)C(=O)c2ccccc21: 107%
